Published values pooled from the literature.
Each line is one published result; not all experiments were run side by side. ± marks the error that the study gave.
UniProt Q62968, sequence (whole entry, looked up): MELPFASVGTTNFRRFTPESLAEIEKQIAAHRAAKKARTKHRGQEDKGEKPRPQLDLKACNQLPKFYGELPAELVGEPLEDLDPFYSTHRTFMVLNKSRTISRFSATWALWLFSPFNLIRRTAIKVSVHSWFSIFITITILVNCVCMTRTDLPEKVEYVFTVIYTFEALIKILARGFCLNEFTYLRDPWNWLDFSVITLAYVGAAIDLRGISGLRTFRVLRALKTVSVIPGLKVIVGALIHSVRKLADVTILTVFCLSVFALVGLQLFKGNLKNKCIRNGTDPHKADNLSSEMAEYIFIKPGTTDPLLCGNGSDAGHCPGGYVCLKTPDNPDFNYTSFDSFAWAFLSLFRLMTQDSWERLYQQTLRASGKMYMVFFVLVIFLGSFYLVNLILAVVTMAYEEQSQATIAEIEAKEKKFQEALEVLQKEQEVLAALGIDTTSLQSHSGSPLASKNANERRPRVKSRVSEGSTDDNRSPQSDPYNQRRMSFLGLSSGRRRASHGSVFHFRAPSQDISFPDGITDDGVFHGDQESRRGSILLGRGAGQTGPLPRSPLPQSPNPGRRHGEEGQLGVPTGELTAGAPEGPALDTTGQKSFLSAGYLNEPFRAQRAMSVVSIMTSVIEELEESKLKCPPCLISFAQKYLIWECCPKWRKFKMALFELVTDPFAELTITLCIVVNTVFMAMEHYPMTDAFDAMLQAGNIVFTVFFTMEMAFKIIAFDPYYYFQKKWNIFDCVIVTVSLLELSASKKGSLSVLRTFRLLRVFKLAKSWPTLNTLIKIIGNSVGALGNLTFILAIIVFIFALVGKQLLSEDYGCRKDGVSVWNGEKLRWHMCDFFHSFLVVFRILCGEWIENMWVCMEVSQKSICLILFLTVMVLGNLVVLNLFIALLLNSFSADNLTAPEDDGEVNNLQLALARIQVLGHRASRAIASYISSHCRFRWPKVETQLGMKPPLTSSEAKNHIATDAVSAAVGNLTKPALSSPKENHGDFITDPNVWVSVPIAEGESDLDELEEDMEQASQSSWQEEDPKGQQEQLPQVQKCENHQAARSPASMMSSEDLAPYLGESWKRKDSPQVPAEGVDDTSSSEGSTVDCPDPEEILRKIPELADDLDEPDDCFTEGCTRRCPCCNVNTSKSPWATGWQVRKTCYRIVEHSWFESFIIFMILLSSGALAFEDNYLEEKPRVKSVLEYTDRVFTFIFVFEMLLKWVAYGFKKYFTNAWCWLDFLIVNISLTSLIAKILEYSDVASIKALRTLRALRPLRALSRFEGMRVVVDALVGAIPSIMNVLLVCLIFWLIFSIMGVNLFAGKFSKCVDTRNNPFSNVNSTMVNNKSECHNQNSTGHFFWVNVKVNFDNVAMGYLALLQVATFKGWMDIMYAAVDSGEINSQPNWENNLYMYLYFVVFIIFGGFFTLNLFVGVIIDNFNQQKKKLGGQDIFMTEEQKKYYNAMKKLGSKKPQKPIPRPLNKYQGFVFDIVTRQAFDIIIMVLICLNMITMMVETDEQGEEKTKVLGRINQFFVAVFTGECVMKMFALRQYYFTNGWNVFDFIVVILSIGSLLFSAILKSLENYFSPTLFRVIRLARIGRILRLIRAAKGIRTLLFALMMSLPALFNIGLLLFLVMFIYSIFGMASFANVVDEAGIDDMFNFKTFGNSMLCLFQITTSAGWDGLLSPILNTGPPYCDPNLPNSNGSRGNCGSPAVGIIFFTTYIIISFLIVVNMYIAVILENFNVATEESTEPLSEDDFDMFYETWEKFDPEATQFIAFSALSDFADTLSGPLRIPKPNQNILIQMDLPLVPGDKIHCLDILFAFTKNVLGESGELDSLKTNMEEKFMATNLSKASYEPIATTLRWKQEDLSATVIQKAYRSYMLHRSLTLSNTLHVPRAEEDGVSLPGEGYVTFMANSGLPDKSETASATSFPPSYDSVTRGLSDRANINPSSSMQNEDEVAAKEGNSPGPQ

SMILES = CC(C)C[C@H](NC(=O)[C@H](CO)NC(=O)[C@H](Cc1c[nH]c2ccccc12)NC(=O)[C@H](Cc1ccccc1)NC(=O)[C@H](Cc1ccccc1)NC(=O)[C@H](CCC(N)=O)NC(=O)[C@@H]1CCCN1C(=O)[C@H](CCCNC(=N)N)NC(=O)[C@H](CCCNC(=N)N)NC(=O)[C@H](CCCNC(=N)N)NC(=O)[C@H](CCC(N)=O)NC(=O)[C@H](CCCNC(=N)N)NC(=O)[C@H](CCCNC(=N)N)NC(=O)[C@H](CCCCN)NC(=O)[C@H](CCCCN)NC(=O)[C@H](CCCNC(=N)N)NC(=O)CNC(=O)[C@@H](N)Cc1ccc(O)cc1)C(=O)N[C@@H](CS)C(=O)N[C@H](C(=O)N[C@@H](C)C(=O)O)[C@@H](C)O; tested on = Jurkat; assay = trypan blue exclusion; setting = 7.5 µM, 17 h, added: zVAD-fmk 50 µM 30 min pretreatment; measurement = viable cells; result = 11%
SMILES = COC1CC(OC2CCC3(C)C(CCC45OC46CCC(C(C)=O)C6(C)C(OC(C)=O)C(OC(=O)c4ccccc4)C35)C2)OC(C)C1OC1OC(C)C(O)C(OC)C1O (centres unmarked); tested on = MDA435/LCC6-MDR1; assay = cell growth, MDR reversal, SRB; setting = 10 µM, added: paclitaxel; how to read = baseline: paclitaxel alone over combination; measurement = fold reversal of IC50; result = 23
SMILES = COC(=O)C1=CO[C@@H](O)[C@@H]2C(Cn3cc(-c4ccc(OC)cc4)nn3)=CC[C@H]12; tested on = SK-N-SH; assay = neuroprotection, MTT; setting = 0.6 µM, 24 h, added: 250 µM H2O2; measurement = viability; result = 78.6 ± 1.9%
SMILES = N=C(N)NCCC[C@@H]1NC(=O)[C@H](CCCCNC(=O)CNC(=O)CNC(=O)CNC(=O)CC[C@H](NC(=O)CCOCCOCCOCCOCCNC(=O)CC[C@H](NC(=O)CN2CCN(CC(=O)O)CCN(CC(=O)O)CCN(CC(=O)O)CC2)C(=O)NCCOCCOCCOCCOCCC(=O)N[C@@H](CCC(=O)NCC(=O)NCC(=O)NCC(=O)NCCCC[C@@H]2NC(=O)[C@@H](Cc3ccccc3)NC(=O)[C@H](CC(=O)O)NC(=O)CNC(=O)[C@H](CCCNC(=N)N)NC2=O)C(=O)NCC(=O)NCC(=O)NCC(=O)NCCCC[C@@H]2NC(=O)[C@@H](Cc3ccccc3)NC(=O)[C@H](CC(=O)O)NC(=O)CNC(=O)[C@H](CCCNC(=N)N)NC2=O)C(=O)NCC(=O)NCC(=O)NCC(=O)NCCCC[C@@H]2NC(=O)[C@@H](Cc3ccccc3)NC(=O)[C@H](CC(=O)O)NC(=O)CNC(=O)[C@H](CCCNC(=N)N)NC2=O)NC(=O)[C@@H](Cc2ccccc2)NC(=O)[C@H](CC(=O)O)NC(=O)CNC1=O [indium-111 labelled]; system = athymic nude mouse, U-87 MG xenograft, tumour; measurement = washout half-life; result = ~35 h
SMILES = CCN(Cc1ccccc1)C(=O)CCc1nc(CN2CCN(C(=O)Cc3ccc(OC)c(OC)c3)CC2)no1; tested on = Sodium channel protein type 10 subunit alpha (Scn10a, Rattus norvegicus, UniProt Q62968); assay = sodium current, whole-cell patch clamp; system = rat DRG neurons; setting = 3 µM; measurement = inactivation V1/2; result = -67.2 ± 1.3 mV
SMILES = COc1cc(/C=C(\C#N)C(=O)Nc2nnc(C(F)(F)F)s2)ccc1OC(=O)N1CCN(C(=O)CCCC(=O)NCCCC[C@@H]2NC(=O)[C@@H](Cc3ccc(O)cc3)NC(=O)[C@H](CC(=O)O)NC(=O)CNC(=O)[C@H](CCCNC(=N)N)NC2=O)CC1; tested on = U87; assay = cell growth, MTT; setting = 48 h; measurement = GI50; result = 63 ± 0.9 µM
SMILES = CCCCCCCCC(=O)NCc1ccc(O)c(OC)c1; tested on = mouse mAb 1-D6; assay = antibody binding, indirect competitive ELISA; setting = added: coating antigen 1-OVA; measurement = IC50; result = 2.13 µg/mL
SMILES = CCCC[C@H](NC(=O)CNC(=O)CNC(=O)c1ccc(NN)nc1)C(=O)N[C@H]1CC(=O)NCCCC[C@@H](C(N)=O)NC(=O)[C@H](Cc2c[nH]c3ccccc23)NC(=O)[C@H](CCCNC(=N)N)NC(=O)[C@@H](Cc2ccccc2)NC(=O)[C@H](Cc2c[nH]cn2)NC1=O [technetium-99m labelled]; system = C57 mouse, B16/F1 melanoma; setting = 2 h, added: L-lysine; how to read = baseline: tumour over skin; measurement = uptake ratio; result = 61.3
SMILES = COC(=O)C1=CO[C@@H](OC(C)=O)[C@@H]2C(Cn3cc(-c4ccc(OC)cc4)nn3)=CC[C@H]12; tested on = SK-N-SH; assay = neuroprotection, MTT; setting = 0.075 µM, 24 h, added: 250 µM H2O2; measurement = viability; result = 72.5 ± 0.6%
SMILES = CCCc1cc(OC)c2c(c1)OCO2; tested on = SK-OV-3; assay = cell growth or viability, MTT; setting = 72 h; measurement = GI50; result = > 250 µM
SMILES = COC(=O)C1=CO[C@@H](OC(C)=O)[C@@H]2C(Cn3cc(C4(O)CCCCC4)nn3)=CC[C@H]12; tested on = SK-N-SH; assay = neuroprotection, MTT; setting = 0.15 µM, 24 h, added: 250 µM H2O2; measurement = viability; result = 69.2 ± 1.1%
SMILES = Cc1cc(C)c(-n2ccn(-c3c(C)cc(C)cc3C)c2=[Se])c(C)c1.[Cl][Ag]; tested on = LoVo-OXP colon cancer cells; assay = MTT; how to read = baseline: LoVo-OXP over LoVo IC50; measurement = resistance factor; result = 0.3
SMILES = COc1ccc(Nc2c3c(nc4ccccc24)CCC(C)C3)nc1 (centres unmarked); tested on = SH-SY5Y; assay = MTT; setting = 50 µM, 1 h pretreatment, 10% FBS, added: H2O2; measurement = viability; result = 56.8 ± 5.51%
SMILES = COc1nc(CC=C(C)CC=CC(C)=CC(C)C(OC2OC(CO)C(O)C(O)C2O)C(C)=CCO)c(C)c(O)c1OC (centres unmarked); tested on = HK-2; assay = JC-1 red/green ratio; setting = concentration not given, added: H2O2; measurement = mitochondrial membrane potential; result = increased
SMILES = COC(=O)C1=CO[C@@H](OC(C)=O)[C@@H]2C(Cn3cc(CCBr)nn3)=CC[C@H]12; tested on = SK-N-SH; assay = neuroprotection, MTT; setting = 0.3 µM, 24 h, added: 250 µM H2O2; measurement = viability; result = 68.9 ± 0.5%
SMILES = CC(C)CC(O)(CC(C)C)c1cn(C(=O)N2CCCC2)nn1; tested on = mouse T-cells; assay = N-terminal labeled proteins, N-terminal enrichment proteomics, item: TPI1; setting = 1 nM, 6 h; how to read = baseline: DMSO; measurement = SILAC ratio; result = 2.42 ± 0.35
SMILES = CN[C@](C)(C[18F])C(=O)O; tested on = SK-OV-3 tumour model; system = host not given, bone; setting = 1 h, tumour-bearing; measurement = tracer uptake; result = 2.3 %ID/g
SMILES = COc1ccc(CNc2c(NC3CCN(Cc4ccccc4)CC3)c(=O)c2=O)cc1; tested on = SH-SY5Y; assay = neuroprotection, MTT; setting = 12.5 µM, 24 h pretreatment, added: H2O2 650 µM for 4 h; measurement = cell survival; result = 54.6%
SMILES = CC(C)C[C@H](NC(=O)CCNc1ccc([N+](=O)[O-])c2nonc12)C(=O)N[C@@H](CC(C)C)C(=O)N[C@@H](CC(C)C)C(=O)N[C@@H](CC(C)C)C(=O)N[C@@H](Cc1ccc(OP(=O)(O)O)cc1)C(=O)O; tested on = SJSA-1; assay = cell viability, MTT; setting = 24 h; measurement = IC50; result = 101 µM
SMILES = N=C(N)NCCC[C@@H]1NC(=O)[C@H](CCCCNC(=O)CCOCCOCCOCCOCCNC(=O)CN2CCN(CC(=O)O)CCN(CC(=O)O)CCN(CC(=O)O)CC2)NC(=O)[C@@H](Cc2ccccc2)NC(=O)[C@H](CC(=O)O)NC(=O)CNC1=O [indium-111 labelled]; system = athymic nude mice, female, U-87 MG glioma xenograft, tumour and lungs; setting = intravenous, 24 h; how to read = baseline: tumour over lungs; measurement = tumour to tissue ratio; result = 4.9 ± 1.02

Repeated from above:
SMILES = CCCCCCCCC(=O)NCc1ccc(O)c(OC)c1; tested on = mouse mAb 1-D6; assay = antibody binding, indirect competitive ELISA; setting = added: coating antigen 1-OVA; measurement = IC50; result = 2.13 µg/mL
SMILES = COc1cc(/C=C(\C#N)C(=O)Nc2nnc(C(F)(F)F)s2)ccc1OC(=O)N1CCN(C(=O)CCCC(=O)NCCCC[C@@H]2NC(=O)[C@@H](Cc3ccc(O)cc3)NC(=O)[C@H](CC(=O)O)NC(=O)CNC(=O)[C@H](CCCNC(=N)N)NC2=O)CC1; tested on = U87; assay = cell growth, MTT; setting = 48 h; measurement = GI50; result = 63 ± 0.9 µM
SMILES = COC(=O)C1=CO[C@@H](O)[C@@H]2C(Cn3cc(-c4ccc(OC)cc4)nn3)=CC[C@H]12; tested on = SK-N-SH; assay = neuroprotection, MTT; setting = 0.6 µM, 24 h, added: 250 µM H2O2; measurement = viability; result = 78.6 ± 1.9%
